Assay results collected from several papers.
Lines come from different studies, so protocols differ. ± marks the error that the study gave.
HDAC2: Histone deacetylase 2 (HDAC2, Homo sapiens, UniProt Q92769)
Chain of UniProt Q92769 (whole entry, looked up): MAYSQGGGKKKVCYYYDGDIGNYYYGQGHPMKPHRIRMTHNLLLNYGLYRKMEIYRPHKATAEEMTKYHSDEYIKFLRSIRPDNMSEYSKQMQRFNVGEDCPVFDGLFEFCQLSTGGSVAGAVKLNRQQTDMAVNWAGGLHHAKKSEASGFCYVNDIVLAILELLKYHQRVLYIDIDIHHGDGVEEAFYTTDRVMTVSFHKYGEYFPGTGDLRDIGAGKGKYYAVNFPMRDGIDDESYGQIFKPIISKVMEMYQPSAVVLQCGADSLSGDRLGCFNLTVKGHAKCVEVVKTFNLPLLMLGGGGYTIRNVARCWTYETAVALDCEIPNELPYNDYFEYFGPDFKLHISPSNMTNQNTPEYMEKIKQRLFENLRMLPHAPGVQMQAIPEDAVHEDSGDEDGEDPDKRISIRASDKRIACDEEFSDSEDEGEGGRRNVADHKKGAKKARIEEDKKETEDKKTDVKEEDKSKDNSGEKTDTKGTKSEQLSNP
Chain of UniProt O43148 (whole entry, looked up): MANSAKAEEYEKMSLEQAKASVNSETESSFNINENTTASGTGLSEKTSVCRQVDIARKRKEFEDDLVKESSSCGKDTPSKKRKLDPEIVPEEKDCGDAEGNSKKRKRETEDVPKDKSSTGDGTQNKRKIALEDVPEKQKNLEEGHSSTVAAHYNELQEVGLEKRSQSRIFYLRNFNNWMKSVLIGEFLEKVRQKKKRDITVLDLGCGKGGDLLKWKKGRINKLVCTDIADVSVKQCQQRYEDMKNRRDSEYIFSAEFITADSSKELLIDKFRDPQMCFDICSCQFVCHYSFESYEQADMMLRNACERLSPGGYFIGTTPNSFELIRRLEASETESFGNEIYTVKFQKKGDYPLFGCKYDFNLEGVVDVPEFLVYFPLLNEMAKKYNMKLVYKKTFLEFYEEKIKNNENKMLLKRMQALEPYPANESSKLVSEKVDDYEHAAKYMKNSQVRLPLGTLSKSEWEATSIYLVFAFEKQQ
Chain of UniProt A6TAP2 (whole entry, looked up): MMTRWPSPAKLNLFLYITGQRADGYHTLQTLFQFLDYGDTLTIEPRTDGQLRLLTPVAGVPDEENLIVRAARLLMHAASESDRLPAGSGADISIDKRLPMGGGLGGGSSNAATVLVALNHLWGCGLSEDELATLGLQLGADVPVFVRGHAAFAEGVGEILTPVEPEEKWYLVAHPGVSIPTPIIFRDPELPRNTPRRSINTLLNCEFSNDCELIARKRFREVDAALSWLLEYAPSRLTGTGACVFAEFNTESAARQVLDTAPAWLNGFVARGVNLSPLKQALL
Chain of UniProt P14600 (whole entry, looked up): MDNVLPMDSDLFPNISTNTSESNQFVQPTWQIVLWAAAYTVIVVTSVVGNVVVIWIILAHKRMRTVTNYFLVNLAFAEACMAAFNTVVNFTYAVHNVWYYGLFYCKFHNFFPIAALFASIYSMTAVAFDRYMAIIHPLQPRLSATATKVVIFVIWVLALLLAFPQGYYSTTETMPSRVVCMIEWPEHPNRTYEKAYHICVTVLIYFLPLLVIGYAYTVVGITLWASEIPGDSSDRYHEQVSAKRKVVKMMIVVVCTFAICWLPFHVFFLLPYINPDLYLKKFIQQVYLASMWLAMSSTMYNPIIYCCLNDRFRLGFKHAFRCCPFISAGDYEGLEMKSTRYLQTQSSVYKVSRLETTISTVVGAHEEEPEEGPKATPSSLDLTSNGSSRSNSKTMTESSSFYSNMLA
Chain of UniProt P18564 (whole entry, looked up): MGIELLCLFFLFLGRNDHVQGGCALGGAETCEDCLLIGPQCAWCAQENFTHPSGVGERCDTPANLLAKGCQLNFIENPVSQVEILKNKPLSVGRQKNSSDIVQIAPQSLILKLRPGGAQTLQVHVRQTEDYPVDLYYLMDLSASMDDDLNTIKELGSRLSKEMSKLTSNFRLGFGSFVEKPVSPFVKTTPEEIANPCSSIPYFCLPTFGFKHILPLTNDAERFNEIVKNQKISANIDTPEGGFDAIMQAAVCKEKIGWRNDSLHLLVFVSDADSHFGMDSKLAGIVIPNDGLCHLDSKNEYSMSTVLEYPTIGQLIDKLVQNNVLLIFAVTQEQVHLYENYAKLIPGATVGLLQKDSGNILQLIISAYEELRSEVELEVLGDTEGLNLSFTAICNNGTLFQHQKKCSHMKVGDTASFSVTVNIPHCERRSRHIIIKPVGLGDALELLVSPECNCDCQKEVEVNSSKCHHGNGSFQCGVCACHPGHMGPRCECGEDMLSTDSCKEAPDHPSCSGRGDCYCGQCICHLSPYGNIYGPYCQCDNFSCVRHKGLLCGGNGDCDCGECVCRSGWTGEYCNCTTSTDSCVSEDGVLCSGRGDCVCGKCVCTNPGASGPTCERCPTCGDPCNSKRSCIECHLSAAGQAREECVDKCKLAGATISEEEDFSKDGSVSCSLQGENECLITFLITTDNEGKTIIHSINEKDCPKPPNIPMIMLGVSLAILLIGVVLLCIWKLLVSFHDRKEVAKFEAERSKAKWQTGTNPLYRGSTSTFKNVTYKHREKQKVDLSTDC
Chain of UniProt C7FF04 (whole entry, looked up): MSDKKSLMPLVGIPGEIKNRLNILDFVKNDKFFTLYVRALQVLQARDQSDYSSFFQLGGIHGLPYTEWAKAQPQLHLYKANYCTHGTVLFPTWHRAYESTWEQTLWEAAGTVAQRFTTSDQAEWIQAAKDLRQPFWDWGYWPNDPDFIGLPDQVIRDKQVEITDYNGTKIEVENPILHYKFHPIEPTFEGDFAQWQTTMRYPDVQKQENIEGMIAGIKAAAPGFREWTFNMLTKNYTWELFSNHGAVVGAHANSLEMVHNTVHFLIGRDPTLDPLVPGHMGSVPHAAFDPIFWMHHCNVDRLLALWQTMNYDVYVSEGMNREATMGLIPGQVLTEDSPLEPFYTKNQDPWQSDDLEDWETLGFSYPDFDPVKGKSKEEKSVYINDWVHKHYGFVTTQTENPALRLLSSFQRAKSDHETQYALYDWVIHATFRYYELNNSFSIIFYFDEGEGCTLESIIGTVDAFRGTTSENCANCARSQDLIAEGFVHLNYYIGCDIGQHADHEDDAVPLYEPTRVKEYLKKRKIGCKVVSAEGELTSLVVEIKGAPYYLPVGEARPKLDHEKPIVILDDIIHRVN
Chain of UniProt Q96JB6 (whole entry, looked up): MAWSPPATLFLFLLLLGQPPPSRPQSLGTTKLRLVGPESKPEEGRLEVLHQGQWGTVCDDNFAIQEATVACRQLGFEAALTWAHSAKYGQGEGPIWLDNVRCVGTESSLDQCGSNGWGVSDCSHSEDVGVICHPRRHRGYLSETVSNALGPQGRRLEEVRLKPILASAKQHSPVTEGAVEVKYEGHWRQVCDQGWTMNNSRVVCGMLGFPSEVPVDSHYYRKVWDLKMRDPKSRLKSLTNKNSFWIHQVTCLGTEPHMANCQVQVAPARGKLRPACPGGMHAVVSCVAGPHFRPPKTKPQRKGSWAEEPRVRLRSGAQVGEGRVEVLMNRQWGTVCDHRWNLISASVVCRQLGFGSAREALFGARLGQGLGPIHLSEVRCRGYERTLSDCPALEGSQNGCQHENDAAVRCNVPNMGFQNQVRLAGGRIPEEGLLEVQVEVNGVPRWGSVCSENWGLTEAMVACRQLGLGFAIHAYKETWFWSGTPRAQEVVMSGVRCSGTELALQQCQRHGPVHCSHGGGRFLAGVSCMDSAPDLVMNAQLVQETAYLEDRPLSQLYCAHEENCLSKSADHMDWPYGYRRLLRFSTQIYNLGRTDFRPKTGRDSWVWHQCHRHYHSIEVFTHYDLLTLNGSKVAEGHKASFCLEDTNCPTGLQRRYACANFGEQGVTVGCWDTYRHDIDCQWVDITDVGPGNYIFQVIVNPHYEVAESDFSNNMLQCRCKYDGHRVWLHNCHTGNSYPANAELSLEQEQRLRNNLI
Chain of UniProt P06756 (whole entry, looked up): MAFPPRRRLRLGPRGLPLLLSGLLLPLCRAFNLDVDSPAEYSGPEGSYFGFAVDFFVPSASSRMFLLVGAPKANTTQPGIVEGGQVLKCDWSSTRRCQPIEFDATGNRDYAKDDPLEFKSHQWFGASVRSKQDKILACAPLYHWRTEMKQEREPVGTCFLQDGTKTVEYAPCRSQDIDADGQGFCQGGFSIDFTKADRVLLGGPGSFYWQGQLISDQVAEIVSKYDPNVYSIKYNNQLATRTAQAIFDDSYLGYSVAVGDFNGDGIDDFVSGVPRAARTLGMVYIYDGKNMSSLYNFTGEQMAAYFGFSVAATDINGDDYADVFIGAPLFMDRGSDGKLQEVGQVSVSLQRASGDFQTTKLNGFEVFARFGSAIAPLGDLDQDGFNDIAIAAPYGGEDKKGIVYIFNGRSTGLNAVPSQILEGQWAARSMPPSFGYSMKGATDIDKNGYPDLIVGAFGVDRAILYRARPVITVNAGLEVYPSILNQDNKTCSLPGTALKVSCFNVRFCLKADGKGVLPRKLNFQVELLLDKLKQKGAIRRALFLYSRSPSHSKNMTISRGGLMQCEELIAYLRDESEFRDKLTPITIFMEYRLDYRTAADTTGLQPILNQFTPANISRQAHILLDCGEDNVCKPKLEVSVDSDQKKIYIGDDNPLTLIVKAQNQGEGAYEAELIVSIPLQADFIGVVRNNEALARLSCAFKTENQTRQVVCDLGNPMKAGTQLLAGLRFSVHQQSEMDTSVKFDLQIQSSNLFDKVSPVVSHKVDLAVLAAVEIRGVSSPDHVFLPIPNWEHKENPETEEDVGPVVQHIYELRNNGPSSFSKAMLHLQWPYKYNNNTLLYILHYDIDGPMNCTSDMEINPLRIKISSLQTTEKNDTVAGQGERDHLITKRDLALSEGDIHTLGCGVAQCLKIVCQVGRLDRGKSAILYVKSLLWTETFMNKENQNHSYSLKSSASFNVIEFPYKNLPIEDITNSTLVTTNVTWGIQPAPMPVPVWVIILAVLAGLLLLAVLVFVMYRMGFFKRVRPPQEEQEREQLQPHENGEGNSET

| SMILES | target | assay | conditions | IC50 |
| --- | --- | --- | --- | --- |
| CCCCCCCCCCCCCCCc1ccc(COP(O)(O)=S)cc1 | Autotaxin (ENPP2, Homo sapiens, UniProt Q13822) | enzyme activity, inhibitor | added: FS-3 1 µM | 1540 nM |
| CN(C)c1ccc(C(=O)NCc2ccc(CNC(=O)CS)cc2)cc1 | HDAC2 | enzyme activity, inhibitor | – | > 30000 nM |
| O=C1c2ccccc2[Se](=O)N1c1ccccc1 (stereo not shown) | HDAC2 | enzyme activity, inhibitor, fluorescence | – | > 10000 nM |
| O=C1c2c(O)cccc2Cc2cccc(O)c21 | mRNA cap guanine-N(7) methyltransferase (RNMT, Homo sapiens, UniProt O43148) | enzyme activity, inhibitor | – | < 50 nM |
| O=C(O)c1cc(Br)c[nH]1 | 4-diphosphocytidyl-2-C-methyl-D-erythritol kinase (ispE, Klebsiella pneumoniae subsp. pneumoniae, UniProt A6TAP2) | enzyme activity, PK/LDH coupled spectrophotometric | – | 124000 ± 1100 nM |
| CCCC[C@H](NC(=O)[C@H](Cc1ccccc1)NC(=O)CNC(=O)[C@@H](C)NC(=O)[C@@H](N)Cc1ccc(O)cc1)C(=O)N1CCC[C@H]1C(=O)N[C@@H](CC(C)C)C(=O)N[C@@H](CO[C@@H]1O[C@H](CO)[C@@H](O)[C@H](O)[C@H]1O)C(=O)N[C@@H](Cc1c[nH]c2ccccc12)C(=O)NCc1cc(C(F)(F)F)cc(C(F)(F)F)c1 | Substance-P receptor (Rattus norvegicus, UniProt P14600) | ligand displacement, radioligand | – | 95.5 nM |
| Cc1ccc(C(C)C)cc1.[Au][S]C1=NCCS1.[Cl][Ru][Cl].c1ccc(P(CP(c2ccccc2)c2ccccc2)c2ccccc2)cc1 | Cathepsin B (CTSB, Homo sapiens, UniProt P07858) | inhibitor | 10 min preincubation, pH 6, room temperature, added: Z-FR-AMC | 190000 nM |
| CC(C)C[C@H](NC(=O)[C@H](CC(C)C)NC(=O)[C@H](CCCNC(=N)N)NC(=O)[C@@H](N)CS)C(=O)O | PPO3 (Agaricus bisporus, UniProt C7FF04) | enzyme activity, inhibitor | – | 144000 nM |
| Cc1ccc2c(n1)c(-c1cccc(S(C)(=O)=O)c1)c(C)n2C/C(F)=C/CN | Lysyl oxidase homolog 4 (LOXL4, Homo sapiens, UniProt Q96JB6) | enzyme activity, inhibitor, fluorescence | with preincubation | 118 nM |
| CC[C@H](C)[C@@H]1NC(=O)[C@H](Cc2ccccc2)NC(=O)[C@H](CC(N)=O)NC(=O)[C@@H](NC(=O)[C@@H](NC(=O)[C@H](CO)NC(=O)[C@@H](N)Cc2ccc(O)cc2)[C@@H](C)O)CSC(=O)[C@H](CCSC)NC1=O | accessory gene regulator protein C (Staphylococcus aureus, UniProt O33587) | – | – | 4.53 nM |
| CC(C)C[C@H](NC(=O)[C@H](CC(=O)O)NC(=O)CNC(=O)[C@H](CCCNC(=N)N)NC(=O)[C@H](CC(C)C)NC(=O)[C@H](CC(N)=O)NC(=O)[C@@H]1CCCN1C(=O)[C@@H](NC(=O)[C@H](C)NC(=O)[C@H](CC(N)=O)NC(=O)CCOCCOCCOCCOCCOCCOCCOCCOCCOCCOCCOCCOCCOCCOCCOCCOCCOCCOCCOCCOCCOCCOCCOCCOCCOCCOCCOCCOCCNC(=O)CN1CCN(CC(=O)O)CCN(CC(=O)O)CC1)C(C)C)C(=O)N[C@@H](CCC(N)=O)C(=O)N[C@H](C(=O)N[C@@H](CC(C)C)C(=O)N[C@@H](C)C(=O)N[C@@H](CCC(N)=O)C(=O)N[C@@H](CCCNC(=N)N)C(=O)N[C@H](C(=O)N[C@@H](C)C(=O)N[C@@H](CCCNC(=N)N)C(=O)N[C@H](C(=O)NCCOCCOCCOCCOCCOCCOCCOCCOCCOCCOCCOCCOCCOCCOCCOCCOCCOCCOCCOCCOCCOCCOCCOCCOCCOCCOCCOCCOCCC(N)=O)[C@@H](C)O)C(C)C)C(C)C | Integrin alpha-V/beta-6 (Homo sapiens, UniProt P06756+P18564) | binding, competitive ELISA | added: biotinylated latency-associated peptide | 7 ± 3 nM |
| CC1CC2OCOC2C(OC2CCC3(C=O)C4CCC5(C)C(C6=CC(=O)OC6)CCC5(O)C4CCC3(O)C2)O1 (stereo not shown) | Na+/K+-ATPase (pig cerebral cortex) | enzyme activity, inhibitor, phosphate release colorimetric | 30 min, 37 °C, added: ATP-Mg 3 mM | 2300 ± 294 nM |
| c1ccc(-c2csc(Nc3nc4cc5c(cc4s3)OCO5)n2)nc1 | CTP synthase 2 (CTPS2, Homo sapiens, UniProt Q9NRF8) | – | – | > 100000 nM |

Excerpt of the above:
| SMILES | target | assay | conditions | IC50 |
| --- | --- | --- | --- | --- |
| CC(C)C[C@H](NC(=O)[C@H](CC(=O)O)NC(=O)CNC(=O)[C@H](CCCNC(=N)N)NC(=O)[C@H](CC(C)C)NC(=O)[C@H](CC(N)=O)NC(=O)[C@@H]1CCCN1C(=O)[C@@H](NC(=O)[C@H](C)NC(=O)[C@H](CC(N)=O)NC(=O)CCOCCOCCOCCOCCOCCOCCOCCOCCOCCOCCOCCOCCOCCOCCOCCOCCOCCOCCOCCOCCOCCOCCOCCOCCOCCOCCOCCOCCNC(=O)CN1CCN(CC(=O)O)CCN(CC(=O)O)CC1)C(C)C)C(=O)N[C@@H](CCC(N)=O)C(=O)N[C@H](C(=O)N[C@@H](CC(C)C)C(=O)N[C@@H](C)C(=O)N[C@@H](CCC(N)=O)C(=O)N[C@@H](CCCNC(=N)N)C(=O)N[C@H](C(=O)N[C@@H](C)C(=O)N[C@@H](CCCNC(=N)N)C(=O)N[C@H](C(=O)NCCOCCOCCOCCOCCOCCOCCOCCOCCOCCOCCOCCOCCOCCOCCOCCOCCOCCOCCOCCOCCOCCOCCOCCOCCOCCOCCOCCOCCC(N)=O)[C@@H](C)O)C(C)C)C(C)C | Integrin alpha-V/beta-6 (Homo sapiens, UniProt P06756+P18564) | binding, competitive ELISA | added: biotinylated latency-associated peptide | 7 ± 3 nM |
| CC1CC2OCOC2C(OC2CCC3(C=O)C4CCC5(C)C(C6=CC(=O)OC6)CCC5(O)C4CCC3(O)C2)O1 (stereo not shown) | Na+/K+-ATPase (pig cerebral cortex) | enzyme activity, inhibitor, phosphate release colorimetric | 30 min, 37 °C, added: ATP-Mg 3 mM | 2300 ± 294 nM |
